Published values from different studies.
Parts stem from different laboratories: compare values within a part only.

Block 1 — technique: RNA Bind-n-Seq; molecule type: RNA; sample: in vitro; concentration: not given; baseline: input RNA pool; direction: higher = stronger binding; quantity: bound/input enrichment
Target: RING finger protein unkempt homolog, zinc fingers 1-6, GST-SBP tag (UNK, Homo sapiens, UniProt Q9C0B0, residues 30-357)
Sequence of UniProt Q9C0B0 (30-357, looked up): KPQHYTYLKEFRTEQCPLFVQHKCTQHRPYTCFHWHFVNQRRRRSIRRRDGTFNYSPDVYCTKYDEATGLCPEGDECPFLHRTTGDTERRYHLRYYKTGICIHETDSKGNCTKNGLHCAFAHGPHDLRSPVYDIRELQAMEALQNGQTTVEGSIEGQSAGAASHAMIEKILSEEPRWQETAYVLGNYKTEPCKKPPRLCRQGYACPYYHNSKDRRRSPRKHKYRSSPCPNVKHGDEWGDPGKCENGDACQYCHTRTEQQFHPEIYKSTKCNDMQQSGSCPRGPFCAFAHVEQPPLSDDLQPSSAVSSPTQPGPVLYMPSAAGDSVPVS
Setting: RNA with constant flanks, human-mouse chimeric sites, ends assumed
Constant ends, left off below: GGGAGUUCUACAGUCCGACGAUC … CAACAGAGGAUUGAGCAUCA
UUCAAAGAAAAGGGCAGCUGUGUCAUUUCAUAAGUAAAACUGCAUCCUAAGUGGAAGGUUCUUUUGUUUAAUUUUCCCCCAAAUGAAGCCAAAGUGUGUGUUGAAGAACUGAGAAAAAAU: 0.322 ratio
AACUUCGUGCAUCGGUUUCCUUUUGUAGCUGUUUCAAUUGGCUUCCUUGUGAAUAAAGAGAUGGAGUUUGGAAUUGUGUACAGCUGUGUGGAAGGCAAGAUGUACACCGGCAGGAAAGGG: 0.35 ratio
CCCCACAACCAUUUGCAGGUCUGGAACUGCACUCUCUUUUUUAAAAAACAUGUAUACAUUUUAGGGCUGUAGAUUUAUUUUCCUGGUUUUGUUUUUCAUUGCUGACUUUUGAGCACAGAA: 1.7 ratio
AAAGAGUGGAUAGAGUGUGCACACGGGAUCGGUGGGACUCGGGCAGAAAAGGAGUGCAAGAUAGAGUUCGAUGACUUCGAAGAGUGCUUGCUUCGGUAGAAAACGAUGAGGCGAAUGCAU: 0.491 ratio
GGUGGGGUGGUCAUUGCCGUUUGAGCUGCUGAUUUUCAUGAGUCGCCCAUUCAGAACUCGUGUAGGGUUGACAAUGUAAGGGGUGGGGGGAUCCAGCUUAUUCUUUUAUUUUCAAGUCCA: 0.433 ratio
AGAAUCUUGGGACUGUUUUACUUAAUUGGUCAUUGAUAGCUUAACAAGCAUGGAGAUAAGAUUAGAAAUCUUGACAUCAACAGGUAUCAAGCAGAAAAAACCAUGGCCACGUGUCUCCUG: 0.127 ratio
CCCCAAUUACCAUCUGUGGUCUGGAACUGCACUCUCUUUAAAGUUUUACAUGUAUACAUUUUAGGGCUGUAGAUUUAUUUUCCUGGUUUUGUUUUUCAUUGCUGACUUUUGAGCACAGAA: 2.03 ratio
CACACACUCUUCUGCGGCACCCUCAUUUUGCAGGCCCGGGCCUAUGUGGGACCCCGUGUCCUGGCAGUGGUGACCCGCACAGGGUUCUGCACGGCAAAAGGGGGCCUGGUGAGCUCCAUC: 0.137 ratio
CUGUGACCACAAGAUCCUACCUGAGUGGCAGCUGAAGUUGACUCCCUCUCCUUGCCUGAACCCCCCCCCACUGCCCCCCCAUCCCCCAGUGUCGGCUAUUCUCUGGUCAGCAGACAGUUC: 0.44 ratio
AACGUGGAACUAAGUUCCUUGGCCCGGCUUCCCAGCUUGAAUAAACUUCGAAAAUUGGAACUUAGUGACAAUAUAAUUUCUGGAGGCUUGGAAGUCCUGGCAGAGAAAUGUCCAAAUCUU: 0.514 ratio
CUGUGACCACAAGAUCCUACCUGAGUGGCAGCUGAAGUUGACUCCCUCUCCUUGCCUGAACCCCCCCCCACUGCCCCCCCAUCCCCCGCAGAAUUCCAUUCUCUGGUCUCUGCACGGUUC: 1.32 ratio

Block 2 — technique: protein-binding microarray; molecule type: double-stranded DNA, one strand shown; sample: in vitro; concentration: not given; direction: higher = stronger binding; quantity: E-score
Target: Protein C-ets-1 (ETS1, Homo sapiens, UniProt P14921, residues 1-441, K379A, full length assumed)
Setting: k-mer, scored over probes, only values ≥0.25
Construct (chain): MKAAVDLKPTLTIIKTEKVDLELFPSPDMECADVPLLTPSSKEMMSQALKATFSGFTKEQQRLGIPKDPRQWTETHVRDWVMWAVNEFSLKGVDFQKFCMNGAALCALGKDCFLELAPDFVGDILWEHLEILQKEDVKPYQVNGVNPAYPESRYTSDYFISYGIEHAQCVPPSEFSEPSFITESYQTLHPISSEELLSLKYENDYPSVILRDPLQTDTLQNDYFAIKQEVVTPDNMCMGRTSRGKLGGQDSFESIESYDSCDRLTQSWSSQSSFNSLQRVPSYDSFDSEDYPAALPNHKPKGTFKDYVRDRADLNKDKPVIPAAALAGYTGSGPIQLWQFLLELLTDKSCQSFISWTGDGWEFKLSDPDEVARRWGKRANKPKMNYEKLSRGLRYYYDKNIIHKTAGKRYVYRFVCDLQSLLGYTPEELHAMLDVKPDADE
CCCGGGAC: 0.343
ACTTGTAT: 0.251
CGCCGGGA: 0.264
ACTGCCGG: 0.311
ATACAGAT: 0.259
ATACACCG: 0.357
GTCGGACA: 0.26
GTTACACA: 0.27
CGGTTATA: 0.267
CCGACGGA: 0.337
ATGTATTG: 0.266
GACGGTAA: 0.275
ATCAACAA: 0.265
CACATCCG: 0.298
CACCGGCA: 0.377
AACCGGTA: 0.459
CGATATCC: 0.277
AGCGGTTA: 0.254
CCGGAACC: 0.351

Block 3 — technique: RNA Bind-n-Seq; molecule type: RNA; sample: in vitro; concentration: 365 nM; baseline: no-protein control; direction: higher = stronger binding; quantity: RBNS enrichment (R)
Target: RNA binding protein fox-1 homolog 2, RRM domain, GST-SBP tag (RBFOX2, Homo sapiens, UniProt O43251-10, residues 100-194)
Setting: natural RNA segment, single round, ends assumed
Constant ends, left off below: GGGAGUUCUACAGUCCGACGAUC … UGGAAUUCUCGGGUGCCAA
UCUUCAUCACCACUGUAGAUUUUGCUGCAUGUGCAGGUCCUCUAUUUUUAAUUGCUGUUUUCGUUGCUGCAGUACUUUACAAACUUCUAGUUCGUUGAGACUUAGUGACC: 7.33
UGUUUUAUUGACAAUGCUAUUGAGUAUUACAGUGUCUAGAAUACCCUGGAUGGCUUCUCUUGUCCACCCGAUCUCCCGUGUUACCAAUGUGUAUGGUCUCCUUCUCCCGA: 0.916
AAGGAAACUUUUAUAUCUGUUGCCUAGUUUUGUACAUGGAUCUCAUUUUACAAGAGAAUCUCUCUGCAAAAAAAAAAAAAACAGUUUAAAAAUGCAUUGAAAGCAGAGUU: 0.431
GGAAGAUAGGGUCCAACAGCGAGAGCCAGGCCCCUCCCCACCCCCACCAGCUCUCUCUAUCAUGGAUCUGCACCUUCUCGCCCUUGUCUCUCCUGAGUCAUGACGGGUCA: 0.379
GAAACUUUGCCUUAGGUAGGUGUUGGCCAGAAAAGUCCAGAUUUCUCUGUGACCUCACCCUGGCCUCUCCUGGAGCUCUGAACCUGCUGUGGAAGGAAGUGGCUGUGACU: 0.832
AUUCAGAGAGGCAUUACUUAGAAUGCUGACAUAAAGACAUGACCUUGAAGAAAAGAAUAGAAUUCUCUAGAGCAGAGUAUUUUAGUAUUUGUAACUGGCAGACUCUGGUU: 0.392
GAGUCUCCUGCCUGCCCACAGAGCAGAGAACCAGUGCACGCUCUUAAGAGAAACUACUUGGCCAAACUGGCCAAGACGCAGCAAGCAGCAGCAGGAACAAAGCAGGCUUA: 0.392
GGCCCAGACAGAAGAGGACGACCUACAGGAGCCAAAGGGAGACCUGACAGAAUCCUAAGACGUGAGUUGCUCAUUGUAAAACUAGAAUGUGAAGUGAAGUCACGGAACAA: 0.7
CUAGCGUCCGCCCUACUCUGCCGCACUUGCCUGUUCGUUUCCUUUCCAUUUUGCACUUGCACUAUUGAACAUGACCCUGCCAGAAAUGCAAAGGGAAUGAAAUCCUGAAG: 4.56
CACGCACGCUCUACUUUGAUAUUAAAACCCACAUAACAUAUAUUUAAUAAAUUCUAUCUAUUUUGUUUAGUAGUGUCUCUUUUCUAUUCCAUCCAUGACUACGUAGAAGG: 1.96
CUCAGAAUAUUAAUUUGUAAAUUCUGCAAGUUUAAUUUUUAUGUAGAUGGUAUAACAUUUGAAAAUAUUGUCUUAUGUGAUUUUUUCCCCUGAAAAUAUUUGCUUGUAAA: 0.846
ACUUUAAAUGUAUCAUGUGAGCAUAAGAGUCUGGAUUAUCUAACAUUGUUAGCCCUGUGUAUGUACAGUCCAGAACUUCACUUUUUUUAGAAAAUUUUUUUGUUUGUUUA: 1.56

Block 4 — technique: aptamer microarray, sandwich; molecule type: DNA with 2'F-ANA; sample: in vitro; concentration: 200 nM; added: Cy3 exosite-II aptamer, 400 nM; direction: higher = stronger binding; quantity: mean fluorescence intensity; sequence: GGTTGGTGTGGTTGG
Target: Prothrombin, mature alpha-thrombin (F2, Homo sapiens, UniProt P00734)
Setting: whole 15-mer aptamer, many near background
2'F-ANA at 2 5 7 11 14 15: 45.1 a.u.
2'F-ANA at 1 5 10 12: 46.9 a.u.
2'F-ANA at 1 3 4 5 7 9 14: 48.5 a.u.
2'F-ANA at 1 2 3 4 5 8 9: 94.9 a.u.
2'F-ANA at 4 9 10 11 15: 75.3 a.u.
2'F-ANA at 1 2 5 9 11 12 14 15: 47.3 a.u.
2'F-ANA at 1 3 7 12 15: 573 a.u.
2'F-ANA at 2 3 4 5 6 7 9 10 11 12 13: 57.2 a.u.
2'F-ANA at 1 2 3 4 5 6 9 11 12 13: 68.5 a.u.
2'F-ANA at 1 3 7 8 9 10 14: 60.3 a.u.
2'F-ANA at 1 2 3 4 5 7 8 9 10 12 13 14 15: 49.3 a.u.
2'F-ANA at 2 3 5 7 8 9 11 12 15: 178 a.u.
2'F-ANA at 4 6 7 8 9 10 11 13: 108 a.u.
2'F-ANA at 1 4 6 7 8 9 10 12: 61.5 a.u.
2'F-ANA at 1 2 4 6 7 11 12 13 14: 66.3 a.u.
2'F-ANA at 1 5 7 8 12 13 15: 89.4 a.u.
2'F-ANA at 1 4 6 7 9 11 12 13 15: 119 a.u.
2'F-ANA at 1 3 5 10 12 15: 46.7 a.u.
2'F-ANA at 4 7 15: 341 a.u.
2'F-ANA at 2 4 8 9: 387 a.u.

Some of these lines once more (block 2):
GTCGGACA: 0.26
GTTACACA: 0.27
CGGTTATA: 0.267
CCGACGGA: 0.337
ATGTATTG: 0.266
GACGGTAA: 0.275
ATCAACAA: 0.265
CACATCCG: 0.298
